Assay results gathered from unrelated publications.
Numbered parts are unrelated; each lists some results of a single study.

Series 1
Target: Prothrombin, mature alpha-thrombin (F2, Homo sapiens, UniProt P00734)
Method: aptamer microarray, sandwich
Form: DNA with 2'F-ANA
Matrix: in vitro
Tested at: 200 nM
Notes: whole 15-mer aptamer, many near background
Together with: Cy3 exosite-II aptamer, 400 nM
Direction: higher = stronger binding
Sequence: GGTTGGTGTGGTTGG
Modification	mean fluorescence intensity [a.u.]
2'F-ANA at 2 3 5 6 7 10 11 12 13 14	46.2
2'F-ANA at 2 4 6 8 10 12 13 14 15	65.5
2'F-ANA at 1 8 10 11 13 15	52
2'F-ANA at 1 3 5 10 11 15	49.8
2'F-ANA at 1 2 3 4 5 8 10 14	75.5
2'F-ANA at 4 6 8 9 10 11 15	70.5
2'F-ANA at 1 6 7 10 12	72.1
2'F-ANA at 2 4 7 8 10 11 12 15	119
2'F-ANA at 4 11 12 13	378
2'F-ANA at 1 2 4 5 6 7 10 12 13 14	59.1
2'F-ANA at 1 3 8 9 14 15	92.2
2'F-ANA at 1 2 3 6 11 13 14	59.1
2'F-ANA at 1 2 3 4 6 8 9 11	156
2'F-ANA at 1 2 5 10 12 13	47.2
2'F-ANA at 2 3 4 5 7 9 12 13 14	50
2'F-ANA at 1 2 3 6 8 9 11 14	66.8
2'F-ANA at 1 2 6 10 11 12 13 14 15	48.1
2'F-ANA at 2 3 6 7 10 12 13 14	256
2'F-ANA at 3 5 6 7	111
2'F-ANA at 1 2 3 4 6 8 9 10 11 13 14 15	49.9
2'F-ANA at 1 3 5 9 10 11	64.2

Series 2
Target: RING finger protein unkempt homolog, zinc fingers 1-6, GST-SBP tag (UNK, Homo sapiens, UniProt Q9C0B0, residues 30-357)
Method: RNA Bind-n-Seq
Form: RNA
Matrix: in vitro
Tested at: not given
Notes: RNA with constant flanks, human-mouse chimeric sites, ends assumed
Relative to: input RNA pool
Direction: higher = stronger binding
All sequences stand within: GGGAGUUCUACAGUCCGACGAUC … CAACAGAGGAUUGAGCAUCA
Residues (chain): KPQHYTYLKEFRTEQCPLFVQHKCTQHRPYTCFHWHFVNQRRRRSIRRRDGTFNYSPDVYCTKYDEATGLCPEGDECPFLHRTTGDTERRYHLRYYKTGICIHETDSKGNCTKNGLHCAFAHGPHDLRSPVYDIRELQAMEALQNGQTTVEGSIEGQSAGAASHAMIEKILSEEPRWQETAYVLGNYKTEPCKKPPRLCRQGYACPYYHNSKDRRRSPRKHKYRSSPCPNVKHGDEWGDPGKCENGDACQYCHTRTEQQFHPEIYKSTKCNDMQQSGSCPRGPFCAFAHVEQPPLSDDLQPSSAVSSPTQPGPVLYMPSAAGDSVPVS
Sequence	bound/input enrichment [ratio]
GAAACAUUUAAAUUUAAAGAAGCUGUUGUUCUAGGAAGCACGGACUUCCUAGAAGAUGAUAUAGAGAAAAUUGUAGAAGAACUGGGGAAAGAGUAUAAGGGCAACGCCUACCAUCUGAUG	1.17
GCUCCUCCCCGCUCUGCAGCCUGGGGACACUGGGCUGGGACCAGAAUCCAGCUUUCUUUUAAAACUCUAUAUUUUUUUUCUUUUUCUGACAUUUCAUUUUUUUUAAAUAGUGUAUUUUUU	31.2
GUAUACGGUUAUCGAGGAAAGGACUGUAGAGCUAAUGUAUACCUGCUUCCCACAGGGGAGAUAGUUUAUUUUAUCGCCUCAGUGGUAGUCCUGUUUAAUUAUGAGGAGAGAACUCAGCGA	0.319
CGAGACAAGACAUCCAGGAACAUGCGAGGCUCCCGGAUGAAUGGACUGCCUAGCCCCACUCACAGCGCCCACUGUAGCUUCUACCGAACCAGAACCUUGCAGGCACUGAGUAAUGAGAAG	0.0793
CCCCAAUACCAUUUGCAGGUCUGGAACUGCACUCUCUUUAAAGUUUUACAUGUAUACAUUUUAGGGCUGUAGACUUAUUUUCCUGGUUUUGUUUUUCAUUGCUGACUUUUGAGCACAGAA	1.8
CGCUUGGAUGAGGCGGGUGUCACAGAUGAAGUGCUGGAUUCUGCCAUGCAAGCCUUCCUUCUGGAGGUCAUUGUUAAACAUGGGGAGCCGGCACCUUAUUUAUGUAAUAAAGAUCCUUUU	0.078
UUACCCGAGAACGAGGAUGAAUUGGAGAGCACCAACAGGCGCUACACCAAGAGGGACUGCAGCACUUUCCUCAGAACUAGUGAGACGGGCAUCGUGGAUCAGGUUAUGGUCACUCUCAAC	0.2
UGUAGUUUCUUGAUUUAUCAUUUUUCUCUUUUCUUUCUUUCCUUUAGGAAAAGCCUAAAGAUUAGACUGUAAGAAAAACAGAAGCCAUGUUUCGAAGACCUGUGUUACAGGUAUUUCGUC	0.131
UACUCAACUUUCUUGCCACAUUUUGAAUUCCAAGACAUUAUCCCUCCAGAUGACUUCCUAACGAGUGAUGAAGAGCAAGAUUCCGUUUUAUUUGGAACUAUGAGAGGACAAGUUGUUGGA	0.186
UUCAAAGGCUGUGUUAUCUGUGUCAUUUCAUAAGUAACUCUGGGGGAGGGAAAUUCUGUUCUUUUGUUUAAUUUUCCCCCAAAUGAAGCCAAAGUGUUUUUUAAGGAACUGAGAAAAAAU	0.169
AGAUUCCCCCUCCUGAGACCUCCUCCGAAGUUGGAGUCUCUUACAGAUGCCUCAUCCCCUGUUAGUAUUUUAGUUUGGACCACCCAGCCUUGGACAAUUCCCGCCAACCAGGCAAUUUGC	2.4

Series 3
Target: RNA binding protein fox-1 homolog 2, RRM domain, GST-SBP tag (RBFOX2, Homo sapiens, UniProt O43251-10, residues 100-194)
Method: RNA Bind-n-Seq
Form: RNA
Matrix: in vitro
Tested at: 365 nM
Notes: natural RNA segment, single round, ends assumed
Relative to: no-protein control
Direction: higher = stronger binding
All sequences stand within: GGGAGUUCUACAGUCCGACGAUC … UGGAAUUCUCGGGUGCCAA
Target sequence (chain): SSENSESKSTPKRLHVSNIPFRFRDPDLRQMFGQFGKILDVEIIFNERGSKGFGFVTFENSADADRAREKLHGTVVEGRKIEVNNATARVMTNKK
Sequence	RBNS enrichment (R)
UACUGAUCCCCCAUCUACUAUCCCCAGUAUGUAAUGGCUGAAUUAAUAUGUAAUCAACUGCAUUGUAUCUAAAGCCUUAGAACUAGUCAGGUGCUCCCUCCACCCAAUAC	0.417
GUGGGUGGGAUCUGGGGGAGGUAGAUUUUCCUCAUCUCUCUUCCUGCCUCCCUCCCAUCUCCUGAUCCACAUAGAUGGAAUAGAAAGCAGCCUUUGUUGCUGUAGAUGUG	0.493
UACCAGUGGACUGUUAGAAAGUAUUUCAGAUACGAGCAUCUUACAGGGCAUUCCAUCCCUAGUUCUCACAGUGAACACCUGCCUCCUCUCUCUCCUGAGAGCAAGCAUUU	0.368
CUCCGUCUCAAAAAAAGGGCAAUAAAUGCCCUCUCUGAAUGUUUGAACUGCCAAGAAAAGGCAUGGAGACAGCGAACUAGAAGAAAGGGCAAGAAGGAAAUAGCCACCGU	0.966
UCCUUCUUCUUUUAUGUGUCUCAGAAUAUUUUUGAGGCGAAAGCGUCUGUCUCUUGGCUAUUUUAACCUAAAAUAACCAGUCUAGUUCUAUCCCCUCUUCUUGUAAAGCA	2.18
UAGAGGUGGGCUCAGAAUUCUAGUGCUAGGUAACACCCUAGGACACACCACAGCCCUAACACACCAGUUAUUCUCAGAGAAGCACUGCUCUGGAAGUUUGGCUACCUCUA	0.582
AGCUCACACUGUAAUCACAGUGACUCAGGAGGCUGAGGUGAGAGGAUUCCUUGAGGCCAGGGUUCGAGACCAACCUUGGGCAACAUAGCAAGACCCCAUUUCUUAAAAAA	0.315
UUUUCCUAAAAAAAAAAAAUGGGAUUUUAGUUCUUAUUCUGUGAUAACUAUCCUCCUCAUAUAAUACUAUUCUUUUUGACACCAUUUGAAGGAACCAAUAUUUGGACCUU	0.486
CCUGCCGUACAUGGACAUCUGUUCAACGACUCAUAUUUCAACUGUACCCGAGAGGCUAGCUAUUUAAGGGAACACAGAGGUAAAUUCUUUUGUAAAGAAUCCUUUUGUAA	0.319
CACCUGGCUCUGUCUUCCUACAGCUGCUCGCACUGACCUGUGGGAACCUGUGGGUCAUCCCCAGGCUGAAUGGAGUACACACUAGAAGAGGGAUGAUGCCUAGCAUUGGG	0.789
AAUCUCUGCAAUCUGUGUCAUGGACUGUACUAUUGUAAGGUCUAUAUUCUGUAUGUGGGUCCCAGACCCUGAUCAGGAAAUGAGCCUCAUGUGUGUCGUUAACAUUUAUA	0.49
AGUGUAAUAUUUCUAACGGUGACUUUGACCUAUUCUGUAGUACAACUGUAAUAGCUAUUGGUCUUCAAGUGGGUUUAGAUUUGGUGACAUCAGUUUGAUAUUCUCUUAAA	0.427

Series 4
Target: Interferon regulatory factor 3, full length, phosphomimetic (IRF3, Homo sapiens, UniProt Q14653, residues 1-427, S386D/S396D/S398D/S402D/T404D/S405D)
Method: protein-binding microarray
Form: double-stranded DNA, one strand shown
Matrix: in vitro
Tested at: 2540 nM top
Notes: 60-bp whole probe
Together with: salmon DNA 0.4 mg/ml
Relative to: random background probes
Direction: higher = stronger binding
All sequences stand within: GCCTAGCAC … GTCTTGATTCGCTTGACGCTGCTG
Target sequence (chain): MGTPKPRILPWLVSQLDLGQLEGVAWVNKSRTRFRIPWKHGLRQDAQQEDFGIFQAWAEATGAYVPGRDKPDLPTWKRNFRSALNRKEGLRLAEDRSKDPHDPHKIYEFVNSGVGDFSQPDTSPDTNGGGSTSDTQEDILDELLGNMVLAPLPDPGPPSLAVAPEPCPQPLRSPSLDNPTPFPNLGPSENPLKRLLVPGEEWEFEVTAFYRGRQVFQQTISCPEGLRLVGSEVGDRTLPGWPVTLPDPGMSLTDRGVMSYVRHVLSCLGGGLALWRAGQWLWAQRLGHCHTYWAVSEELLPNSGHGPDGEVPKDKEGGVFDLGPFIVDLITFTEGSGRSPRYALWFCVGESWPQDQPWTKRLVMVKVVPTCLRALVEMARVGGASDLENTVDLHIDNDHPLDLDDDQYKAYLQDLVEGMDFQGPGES
Sequence	fitted relative affinity [z-score]
TCAAGTATGACTCTGCCACTGTGCTAG	-0.61
GACGATTGCAGTTCCGAGACGTGCTAG	0.949
GACTAACTGGGGACTGGAGACGTGCTA	-0.403
TTGGTTTCTGGTTTATTGAGGTGCTAG	3.36
TTAGGTTTCGACACTGAGTTAGTGCTA	2.55
GACGGTATCCGGTTTCGGGACGTGCTA	3.99
AATTTGAGAACGGAAACCAAGTGCTAG	3.23
TCATCTCCATTTTTCTAACTGTGCTAG	2.3
TTAGATTCCAGTGTCGATTAGTGCTAG	1.41
ATAGGTCTCGGTATCGGTTAGTGCTAG	2.53
CACGGACTGGGGACTGGGGACGTGCTA	-0.932
GACGATATCAGACGGGAGACGTGCTAG	-0.0739
TGAGATATCAGTCTCGATTAGTGCTAG	1.11
TTAGGTATCGGACGGGGTTAGTGCTAG	0.0119
TTAGGTATCCTTCTACTTTAGTGCTAG	5.04
TTAGGTATCTTTCTCCTTTAGTGCTAG	3.08
GACGAACTGAGTATCGAGAGGTGCTAG	-0.15
GACGGACTGCTTATCCTTACGTGCTAG	-0.0278
GACGGTTTTGGTTTCGGGACGTGCTAG	6.47
GGAAGTCCCATGTTGCAGACTGTGCTA	0.111
AAACTCGTGTTTTTCTCCTAGTGCTAG	0.573
GACGATTTCGGTATCGAGACGTGCTAG	4.53
TCAGTTTTCTAATGTTTTACTGTGCTA	2.71

Some of these lines once more (series 2):
Sequence	bound/input enrichment [ratio]
CGAGACAAGACAUCCAGGAACAUGCGAGGCUCCCGGAUGAAUGGACUGCCUAGCCCCACUCACAGCGCCCACUGUAGCUUCUACCGAACCAGAACCUUGCAGGCACUGAGUAAUGAGAAG	0.0793
CCCCAAUACCAUUUGCAGGUCUGGAACUGCACUCUCUUUAAAGUUUUACAUGUAUACAUUUUAGGGCUGUAGACUUAUUUUCCUGGUUUUGUUUUUCAUUGCUGACUUUUGAGCACAGAA	1.8
CGCUUGGAUGAGGCGGGUGUCACAGAUGAAGUGCUGGAUUCUGCCAUGCAAGCCUUCCUUCUGGAGGUCAUUGUUAAACAUGGGGAGCCGGCACCUUAUUUAUGUAAUAAAGAUCCUUUU	0.078
UUACCCGAGAACGAGGAUGAAUUGGAGAGCACCAACAGGCGCUACACCAAGAGGGACUGCAGCACUUUCCUCAGAACUAGUGAGACGGGCAUCGUGGAUCAGGUUAUGGUCACUCUCAAC	0.2
